Measurements from different studies.
Compare with care: the assays were run in different laboratories. “And” joins repeats or separate records; there may be more than shown. ± marks the error that the study gave.
U2AF2: U2AF2 148-342 (Homo sapiens, UniProt P26368)
UniProt P26368, sequence (whole entry, looked up): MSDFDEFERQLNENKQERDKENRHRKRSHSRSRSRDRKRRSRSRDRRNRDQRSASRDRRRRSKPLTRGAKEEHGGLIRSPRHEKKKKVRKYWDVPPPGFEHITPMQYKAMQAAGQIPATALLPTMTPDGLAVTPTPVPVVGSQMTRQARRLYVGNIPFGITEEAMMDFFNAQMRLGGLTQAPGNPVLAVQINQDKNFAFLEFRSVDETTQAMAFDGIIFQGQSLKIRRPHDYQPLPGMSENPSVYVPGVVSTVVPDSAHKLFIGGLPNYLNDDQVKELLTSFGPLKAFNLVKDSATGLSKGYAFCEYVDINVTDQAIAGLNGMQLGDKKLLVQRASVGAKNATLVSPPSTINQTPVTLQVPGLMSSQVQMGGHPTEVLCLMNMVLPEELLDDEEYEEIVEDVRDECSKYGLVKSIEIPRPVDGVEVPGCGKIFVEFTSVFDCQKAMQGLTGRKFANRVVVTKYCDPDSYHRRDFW
B1: POF1B (human); sequence looked up; chain MSSSYWSETSSSSCGTQQLPEVLQCQPQHYHCYHQSSQAQQPPEKNVVYERVRTYSGPMNKVVQALDPFNSREVLSPLKTTSSYQNLVWSDHSQELHSPTLKISTCAPSTLHITQNTEQELHSPTVKLTTYPQTTIRKYVVQNPEQEPLSQFLRGSHFFPGNNVIYEKTIRKVEKLNTDQGCHPQAQCHHHIIQQPQVIHSAHWQQPDSSQQIQAITGNNPISTHIGNELCHSGSSQICEQVIIQDDGPEKLDPRYFGELLADLSRKNTDLYHCLLEHLQRIGGSKQDFESTDESEDIESLIPKGLSEFTKQQIRYILQMRGMSDKSLRLVLSTFSNIREELGHLQNDMTSLENDKMRLEKDLSFKDTQLKEYEELLASVRANNHQQQQGLQDSSSKCQALEENNLSLRHTLSDMEYRLKELEYCKRNLEQENQNLRMQVSETCTGPMLQAKMDEIGNHYTEMVKNLRMEKDREICRLRSQLNQYHKDVSKREGSCSDFQFKLHELTSLLEEKDSLIKRQSEELSKLRQEIYSSHNQPSTGGRTTITTKKYRTQYPILGLLYDDYEYIPPGSETQTIVIEKTEDKYTCP
B2: human hnRNP D; sequence looked up; chain SEEQFGGDGAAAAATAAVGGSAGEQEGAMVAATQGAAAAAGSGAGTGGGTASGGTEGGSAESEGAKIDASKNEEDEGHSNSSPRHSEAATAQREEWKMFIGGLSWDTTKKDLKDYFSKFGEVVDCTLKLDPITGRSRGFGFVLFKESESVDKVMDQKEHKLNGKVIDPKRAKAMKTKEPVKKIFVGGLSPDTPEEKIREYFGGFGEVESIELPMDNKTNKRRGFCFITFKEEEPVKKIMEKKYHNVGLSKCEIKVAMSKEQYQQQQQWGSRGGFAGRARGRGGGPSQNWNQGYSNYWNQGYGNYGYNSQGYGGYGGYDYTGYNNYYGYGDYSNQQSGYGKVSRRGGHQNSYKPY
B3: human desmocollin-3; sequence looked up; chain RWAPIPCSMQENSLGPFPLFLQQVESDAAQNYTVFYSISGRGVDKEPLNLFYIERDTGNLFCTRPVDREEYDVFDLIAYASTADGYSADLPLPLPIRVEDENDNHPVFTEAIYNFEVLESSRPGTTVGVVCATDRDEPDTMHTRLKYSILQQTPRSPGLFSVHPSTGVITTVSHYLDREVVDKYSLIMKVQDMDGQFFGLIGTSTCIITVTDSNDNAPTFRQNAYEAFVEENAFNVEILRIPIEDKDLINTANWRVNFTILKGNENGHFKISTDKETNEGVLSVVKPLNYEENRQVNLEIGVNNEAPFARDIPRVTALNRALVTVHVRDLDEGPECTPAAQYVRIKENLAVGSKINGYKAYDPENRNGNGLRYKKLHDPKGWITIDEISGSIITSKILDREVETPKNELYNITVLAIDKDDRSCTGTLAVNIEDVNDNPPEILQEYVVICKPKMGYTDILAVDPDEPVHGAPFYFSLPNTSPEISRLWSLTKVNDTAARLSYQKNAGFQEYTIPITVKDRAGQAATKLLRVNLCECTHPTQCRATSRSTGVILGKWAILAILLGIALLFSVLLTLVCGVFGATKGKRFPEDLAQQNLIISNTEAPGDDRVCSANGFMTQTTNNSSQGFCGTMGSGMKNGGQETIEMMKGGNQTLESCRGAGHHHTLDSCRGGHTEVDNCRYTYSEWHSFTQPRLGEKLHRCNQNEDRMPSQDYVLTYNYEGRGSPAGSVGCCSEKQEEDGLDFLNNLEPKFITLAEACTKR
UniProt P13393, sequence (whole entry, looked up): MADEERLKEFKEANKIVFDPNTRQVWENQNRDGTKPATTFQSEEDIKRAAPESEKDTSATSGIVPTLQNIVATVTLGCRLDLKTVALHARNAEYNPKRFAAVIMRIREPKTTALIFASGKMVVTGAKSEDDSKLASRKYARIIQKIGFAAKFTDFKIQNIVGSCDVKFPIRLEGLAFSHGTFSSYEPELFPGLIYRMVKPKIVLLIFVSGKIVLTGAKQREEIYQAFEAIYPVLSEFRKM
UniProt Q00535, sequence (whole entry, looked up): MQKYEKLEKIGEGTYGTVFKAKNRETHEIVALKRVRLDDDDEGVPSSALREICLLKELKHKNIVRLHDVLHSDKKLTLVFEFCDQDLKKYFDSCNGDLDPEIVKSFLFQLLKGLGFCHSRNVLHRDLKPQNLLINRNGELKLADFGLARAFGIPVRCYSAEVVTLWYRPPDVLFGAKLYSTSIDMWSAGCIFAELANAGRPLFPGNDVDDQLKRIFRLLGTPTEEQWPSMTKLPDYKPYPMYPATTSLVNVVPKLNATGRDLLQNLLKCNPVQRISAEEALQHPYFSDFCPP

| Substance | tested on | test | system | setting | scale | quantity | value |
| --- | --- | --- | --- | --- | --- | --- | --- |
| CTCAGGAATTCCTATCAAGTAATGTGGAGCTCAGTTCAAGTCAATCGGTCC (dsDNA; 5'-amino-C6 primer) | SPT15 full length assumed (Saccharomyces cerevisiae, UniProt P13393) | array | double-stranded DNA, one strand shown | TBP alone | – | Kd | 0.00634 ± 0.0003 µM |
| human WDHD1 | PP6C (human) | co-immunoprecipitation, IP-MS | CYB5R4 knockout cells | concentration not given | reference: CYB5R4 knockout over parental | log2 fold change | 0.47 |
| GACCUUCUG (ssRNA) | U2AF2 | sequencing of bound RNA | RNA | motif only | – | Kd | 2.05 µM |
| protein-L-isoaspartate O-methyltransferase, human | CYB5R4 knockout human cells | PP6 interaction, 3xFLAG-PP6C IP-MS | – | concentration not given | reference: CYB5R4 KO over parental | log2 fold change | -0.77 |
| CTCATAGACT | Salmonella enterica serovar Typhimurium | RNA-seq, item: rimO (SL1344_0828) | peptide, SL1344 | 5 µM, 15 min | reference: water control | log2 fold change | -2.66 |
| epoetin alfa | UT7/EPO | microarray, item: CCL2 (probe 216598_s_at) | – | 5 U/mL, 90 min, with: SCF 10 nM | reference: vehicle | mRNA level | 36.4 fold |
| B1 (POF1B) | CYB5R4 knockout human cells | PP6 interaction, 3xFLAG-PP6C IP-MS | – | concentration not given | reference: CYB5R4 KO over parental | log2 fold change | 2.28 |
| milbemycin oxime | Saccharomyces cerevisiae | cell growth | Pdr5 deleted, Cdr1 overexpressed | 2^-5.381 µg/mL, with: fluconazole 10 µg/mL | – | OD600 | 0.064 and 0.084 and 0.059 |
| VVVGAAGVGK | HLA-A*11:01 peptide-β2M single-chain trimer | western blot, item: pMHC-I | peptide, 293T cells | 60 h, unit not given, with: 100 µg/mL cycloheximide | reference: time zero | remaining protein | 0.563 and 0.531 and 0.529 |
| difelikefalin | – | – | Japanese haemodialysis patients with pruritus | intravenous, 1.0 µg/kg, 8 weeks | – | PGIC minimally worse | 1.7% |
| cotadutide | – | metabolomics, item: hepatic alanine | ob/ob mice on AMLN diet, NASH model, liver | dose not given | – | metabolite level | 1.22 ± 0.07 scaled intensity |
| GSGAGKETRV | construct, MBP fusion, human SCRIB, PDZ 3-4 | automated holdup | peptide, crude extract | concentration not given, corrected by standard peak, unit not given | reference: biotin control resin, higher = stronger binding | binding intensity | 0.277 |
| GAGUUUUCA (ssRNA) | U2AF2 | sequencing of bound RNA | RNA | motif only | – | Kd | 0.52 µM |
| colistin | Klebsiella pneumoniae | broth microdilution | clinical isolate RKI-No 373/16-1 | – | – | MIC | 32 µg/mL |
| Peginesatide | UT7/EPO | RT-qPCR, item: SOCS1 | – | concentration not given, 90 min, normalized to HPRT1 | reference: vehicle | mRNA level | 4.2 fold |
| KEAFWNRCLSVINLMSSKMLQINA | Cyclin-dependent kinase 5, with p25 (CDK5, Homo sapiens, UniProt Q00535) | phosphotransferase activity, radiometric | peptide | concentration not given, 10% DMSO, with: histone substrate | reference: p5-WT peptide | activity change | 23% |
| TASPAKETSF | construct, MBP fusion, human SCRIB, PDZ 3-4 | surface plasmon resonance | peptide | concentration not given | higher = stronger binding | normalised SPR binding response | 57.5 normalised RU |
| human filamin B | PP6C (human) | co-immunoprecipitation, IP-MS | CYB5R4 knockout cells | concentration not given | reference: CYB5R4 knockout over parental | log2 fold change | -0.19 |
| GSGAGIESNV | construct, MBP fusion, human SCRIB, PDZ 3-4 | automated holdup | peptide, purified PDZ protein | concentration not given, unit not given | reference: biotin control resin, higher = stronger binding | binding intensity | 0.253 |
| B2 (human hnRNP D) | PP6C (human) | co-immunoprecipitation, IP-MS | CYB5R4 knockout cells | concentration not given | reference: CYB5R4 knockout over parental | log2 fold change | -1.19 |
| GSGAGSETVV | construct, MBP fusion, human SCRIB, PDZ 3-4 | automated holdup | peptide, purified PDZ protein | concentration not given, unit not given | reference: biotin control resin, higher = stronger binding | binding intensity | -0.0265 |
| B3 (human desmocollin-3) | CYB5R4 knockout human cells | PP4 interaction, 3xFLAG-PP4C IP-MS | – | concentration not given | reference: CYB5R4 KO over parental | log2 fold change | 0.84 |
| Polymyxin B | Staphylococcus aureus | DiSC3(5) fluorescence | – | concentration not given, 36 min | higher = more depolarisation | membrane depolarisation | 638 a.u. and 593 a.u. and 873 a.u. |

For quick reference, copied from above:
| Substance | tested on | test | system | setting | scale | quantity | value |
| --- | --- | --- | --- | --- | --- | --- | --- |
| epoetin alfa | UT7/EPO | microarray, item: CCL2 (probe 216598_s_at) | – | 5 U/mL, 90 min, with: SCF 10 nM | reference: vehicle | mRNA level | 36.4 fold |
| B1 (POF1B) | CYB5R4 knockout human cells | PP6 interaction, 3xFLAG-PP6C IP-MS | – | concentration not given | reference: CYB5R4 KO over parental | log2 fold change | 2.28 |
